Results pooled from the literature.

CCC(=O)NC1CC=C(c2cc3c(Nc4cc5ncsc5cc4F)ncnc3s2)CC1 (racemic)
oral bioavailability (BALB/c mouse): 117%

Nc1nc2cnc(C(=O)N3CCOC[C@@H]3c3ccc(C(F)(F)F)cc3)cc2c2c1COC2
oral bioavailability (mouse; oral, 5 mg/kg): 77%

COC1C=COC2(C)Oc3c(C)c(O)c4c(c3C2=O)C2=NC3(CCN(CC(C)C)CC3)NC2=C(NC(=O)C(C)=CC=CC(C)C(O)C(C)C(O)C(C)C(OC(=O)c2cccnc2)C1C)C4=O (stereo not drawn)
oral bioavailability (CD-1 mouse, female, plasma; oral, 10 mg/kg): 79%

CCC(=O)N1CCC=C(c2cc3c(Nc4cc5ncsc5cc4F)ncnc3s2)C1
oral bioavailability (BALB/c mouse): 114%

COC1C=COC2(C)Oc3c(C)c(O)c4c(c3C2=O)C2=NC3(CCN(CC(C)C)CC3)NC2=C(NC(=O)C(C)=CC=CC(C)C(O)C(C)C(O)C(C)C(OC(=O)Nc2cnccn2)C1C)C4=O (stereo not drawn)
oral bioavailability (CD-1 mouse, female, plasma; oral, 10 mg/kg): 74%

O=S(=O)(N[C@H]1CCC[C@@H](N2c3ccccc3CCc3ccccc32)[C@@H]1O)c1ccc(OC(F)(F)F)cc1
oral bioavailability (mouse; oral, 100 mg/kg, solution formulation): 23%

COC1C=COC2(C)Oc3c(C)c(O)c4c(c3C2=O)C2=NC3(CCN(CC(C)C)CC3)NC2=C(NC(=O)C(C)=CC=CC(C)C(O)C(C)C(O)C(C)C(OC(=O)c2cncnc2)C1C)C4=O (stereo not drawn)
oral bioavailability (CD-1 mouse, female, plasma; oral, 10 mg/kg): 80%

CC(C)NC(=O)NC1CC=C(c2cc3c(Nc4cc5ncsc5cc4F)ncnc3s2)CC1 (racemic)
oral bioavailability (BALB/c mouse): 68.8%

O=C1C2CC3CC1CC(C(=O)N1CCN(c4ccc([N+](=O)[O-])c5ncccc45)CC1)(C3)C2
oral bioavailability (ICR mouse, male, plasma; oral, 5 mg/kg; reference: intravenous 1 mg/kg): 3.83%

Excerpt of the above:
CCC(=O)NC1CC=C(c2cc3c(Nc4cc5ncsc5cc4F)ncnc3s2)CC1 (racemic)
oral bioavailability (BALB/c mouse): 117%
